Results collected from several papers.
Lines come from different studies, so protocols differ. ± gives the spread as reported.

CC(C)(C)Cn1c(N)nc2ccc(-c3[nH]c(C(C)(C)C)nc3-c3ccc(F)cc3)nc21  IC50 (MAPK14-independent cell lines; cell growth, drug sensitivity): 15300 nM
CC1(C)CCC(CN2CCN(c3ccc(C(=O)NS(=O)(=O)c4ccc(NCC5CCOCC5)c([N+](=O)[O-])c4)c(Oc4cnc5[nH]ccc5c4)c3)CC2)=C(c2ccc(Cl)cc2)C1  IC50 (CD3+CD4- T cells; cell viability; healthy donor blood): 34.2 nM
Cc1cc(/C=C/C#N)cc(C)c1Nc1ccnc(Nc2ccc(C#N)cc2)n1  IC50 (CNE1; MTT; 48 h): 31200 ± 10300 nM
C[C@H]1Oc2cc(cnc2N)-c2c(nn(C)c2C#N)CN(C)C(=O)c2ccc(F)cc21  IC50 (Ba/F3 ETV6-TRKC; cell viability): 439 nM
S=C(Nc1ccccc1)Nc1nccs1  IC50 (LUHMES 3D neurospheres; viability; 24 h): 140 nM
CCC(=O)N1CCC(COCC(=O)N2CCN(c3nc(-c4cnc(N)nc4C(F)F)nc(N4CCOC[C@@H]4C)n3)CC2)CC1  IC50 (A2058; FOXO1 translocation, kinase translocation reporter; 2 h): 2380 nM
COc1cc(N2CCC(N3CCN(C)CC3)CC2)ccc1Nc1ncc(Cl)c(Nc2ccccc2P(C)(C)=O)n1  IC50 (Ba/F3 ETV6-TRKC; cell viability): 1260 nM
CC1(C)CCC2(CC1)N[C@@H](C(=O)N[C@@H]1CC[C@@H](C(N)=O)OC1)[C@H](c1ccnc(Cl)c1F)[C@]21C(=O)Nc2cc(Cl)ccc21  IC50 (SW982 (MDM2 non-amplified); cell proliferation, alamarBlue; 72 h): 28 nM
C[C@@H]1CN(C(=O)c2ccc(NC(=O)c3cc(O[C@H](C)c4c(Cl)ccc(F)c4Cl)c(N)nn3)cc2)C[C@H](C)N1  IC50 (Ba/F3 ETV6-TRKC; cell viability): 91 nM
Cn1ncnc1[C@H]1c2n[nH]c(=O)c3cc(F)cc(c23)N[C@@H]1c1ccc(F)cc1  IC50 (SK-OV-3 RAD51C knockout; colony formation): 1.58 nM
CC(=O)N1CCC(Nc2cc(C(=O)NC[C@H](O)CN3CCc4ccccc4C3)ncn2)CC1  IC50 (PK-1 MTAP wild type; cell viability; 240 h): 52 nM
CCCCCCCCCCCCC/C=C/[C@@H](O)[C@@H](N)COP(=O)(O)O  IC50 (human primary astrocytes; antagonist, item: cAMP; 18 h pretreatment): 1.17 nM
C[C@H](Nc1ccc2c(c1)OCCn1cc(N3C(=O)OC[C@H]3C(F)F)nc1-2)C(N)=O  IC50 (A2058; western blot, item: phospho-S6 Ser235/Ser236; 2 h): > 3000 nM
OCn1ccnc1  IC50 (BEAS-2B; cell viability, MTT; 24 h): > 800000 nM
COc1cc2c3c(n(CCCNC(C)C)c(=O)c2cc1OC)-c1nc2c(cc1C3=O)OCO2  IC50 (ARD multiple myeloma cells; cytotoxicity, MTS; 72 h): 70 ± 1 nM
Oc1ccc2c3c(cnc2c1)-c1ccc(C(F)(F)F)cc1O[C@@H]3c1ccc(OCCN2CC(CF)C2)cc1  IC50 (ER-positive breast cancer cells; cell growth; two doubling times): < 100 nM
Cc1nc(NC(=O)N2CCC[C@H]2C(N)=O)sc1-c1ccnc(C(C)(C)C(F)(F)F)c1  IC50 (A2058; western blot, item: phospho-PKB/Akt Ser473; 2 h): 1940 nM
CCCCN1C[C@H](O)[C@@H](O)[C@@H](O)[C@H]1CO  IC50 (sample D patient fibroblasts; Gb3 level lowering, LC-MS/MS, item: Gb3 d18:1/20:0; 216 h): 9900 nM
COc1cc2nc(N3CCN(C(=O)c4ccco4)CC3)nc(N)c2cc1OC  IC50 (CNE1; MTT; 48 h): 19000 ± 5100 nM
COc1cc2c3c(n(CCCn4ccnc4)c(=O)c2cc1OC)-c1nc2c(cc1C3=O)OCO2  IC50 (ARD multiple myeloma cells; cytotoxicity, MTS; 72 h): 111 ± 58 nM
COc1cc2ccc(=O)oc2cc1OC  IC50 (COLO 320 multidrug resistant; cell growth, MTT; 72 h): 50200 nM
C=CC(=O)N1CCC(COCC(=O)N2CCN(c3nc(-c4cnc(N)nc4C(F)F)nc(N4CCOC[C@@H]4C)n3)CC2)CC1  IC50 (A2058; FOXO1 translocation, kinase translocation reporter; 2 h): 1550 nM
O=C(C[C@@H](C(F)F)n1ccc(F)n1)N1CCC(O)(Cn2cnc3c(cnn3-c3ccc(F)cc3)c2=O)CC1  IC50 (Capan-1 USP7-797-resistant pool R(mix); cell viability, SRB; 5 days): > 20000 nM
C=CC(=O)Nc1cc(Nc2nccc(-c3cn(C)c4ccccc34)n2)c(OC)cc1N(C)CCN(C)C  IC50 (Ba/F3 EGFR T790M/L861Q; cell growth, CellTiter-Glo; 72 h): 12 ± 1.12 nM
Cc1c(C(=O)NN2CCCCC2)nn(-c2ccc(Cl)cc2Cl)c1-c1ccc(Cl)cc1  IC50 (CHO cells expressing human MOR, membranes; basal G-protein activity, inverse agonist): 1100 ± 270 nM
Cc1cc(N2CCc3c(c(C)nn3CC34CCC(NC(=O)[C@@H]5COCCN5)(CC3)CC4)C2)c2cnn(C)c2n1  IC50 (human PBMC; qRT-PCR, item: IFI44 mRNA; with: ssRNA): 1.3 ± 0.1 nM
C[C@H]1Oc2cc(cnc2N)-c2c(nn(C)c2C#N)CN(C)C(=O)c2ccc(F)cc21  IC50 (HCC78, SLC34A2-ROS1): 0.88 nM
O=C(c1cc(Cc2n[nH]c(=O)c3ccccc23)ccc1F)N1CCN(C(=O)C2CC2)CC1  IC50 (SK-OV-3 RAD51C knockout; colony formation): 5.2 nM
Cc1c(C(=O)O)ccc2c3n(nc12)[C@@H]1[C@H](C3)N(CC2CC2)[C@@]2(C(=O)Nc3cc(Cl)ccc32)[C@H]1c1cccc(Cl)c1F  IC50 (A204 (MDM2 non-amplified); cell growth, alamarBlue; 120 h): 7 nM
CC1(C)COc2ccc(F)cc2CN2c3nc4c(cnn4cc3OC[C@H]2C(F)F)C(=O)N1  IC50 (Ba/F3 ETV6-TRKC; cell viability): < 0.5 nM
Nc1ccn([C@@H]2O[C@H](CO)[C@@H](O)C2(F)F)c(=O)n1  IC50 (PANC-1; cell viability, MTT; mutant KRAS primary): > 10000 nM
CCNc1nc2c(c(N3CC(=O)Nc4cc(OC)ccc43)n1)CCC2  IC50 (Taxol-sensitive human cancer lines; cell proliferation, MTS; 72 h, mean over lines): 0.5 nM
CC(C)(C)c1cnc(CSc2cnc(NC(=O)C3CCN(C(=O)CCCCCCCN4Cc5cc6c(cc5C4)C(=O)N(C4CCC(=O)NC4=O)C6=O)CC3)s2)o1 (stereo not shown)  IC50 (U-87 MG glioblastoma; cell viability, MTT): 33.9 nM
COc1cccc2c1C(=O)c1c(O)c3c(c(O)c1C2=O)C[C@@](O)(C(=O)CO)C[C@@H]3O[C@H]1C[C@H](N)[C@H](O)[C@H](C)O1  IC50 (CEM/ADR5000 (P-gp overexpressing, multidrug resistant); cell viability, resazurin; 72 h): 38200 ± 13300 nM
